Measurements pooled from the literature.
Each numbered part is a random draw from the data of one study; scales do not carry over between parts.
UniProt O75914, sequence (whole entry, looked up): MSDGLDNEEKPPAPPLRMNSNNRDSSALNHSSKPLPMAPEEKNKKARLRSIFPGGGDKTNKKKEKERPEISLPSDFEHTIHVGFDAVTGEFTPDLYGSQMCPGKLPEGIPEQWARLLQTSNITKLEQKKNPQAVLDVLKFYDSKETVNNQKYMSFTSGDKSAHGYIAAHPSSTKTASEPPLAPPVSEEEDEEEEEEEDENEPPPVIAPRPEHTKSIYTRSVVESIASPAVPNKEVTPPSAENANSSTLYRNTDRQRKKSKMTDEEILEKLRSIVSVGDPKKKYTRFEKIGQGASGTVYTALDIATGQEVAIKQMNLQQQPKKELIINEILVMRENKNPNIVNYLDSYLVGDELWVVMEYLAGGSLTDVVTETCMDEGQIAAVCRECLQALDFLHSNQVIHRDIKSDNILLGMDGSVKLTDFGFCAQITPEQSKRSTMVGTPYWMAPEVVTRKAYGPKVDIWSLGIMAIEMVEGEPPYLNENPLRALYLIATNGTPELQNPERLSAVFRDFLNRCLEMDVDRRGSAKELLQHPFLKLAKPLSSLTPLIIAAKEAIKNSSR
UniProt Q13464, sequence (whole entry, looked up): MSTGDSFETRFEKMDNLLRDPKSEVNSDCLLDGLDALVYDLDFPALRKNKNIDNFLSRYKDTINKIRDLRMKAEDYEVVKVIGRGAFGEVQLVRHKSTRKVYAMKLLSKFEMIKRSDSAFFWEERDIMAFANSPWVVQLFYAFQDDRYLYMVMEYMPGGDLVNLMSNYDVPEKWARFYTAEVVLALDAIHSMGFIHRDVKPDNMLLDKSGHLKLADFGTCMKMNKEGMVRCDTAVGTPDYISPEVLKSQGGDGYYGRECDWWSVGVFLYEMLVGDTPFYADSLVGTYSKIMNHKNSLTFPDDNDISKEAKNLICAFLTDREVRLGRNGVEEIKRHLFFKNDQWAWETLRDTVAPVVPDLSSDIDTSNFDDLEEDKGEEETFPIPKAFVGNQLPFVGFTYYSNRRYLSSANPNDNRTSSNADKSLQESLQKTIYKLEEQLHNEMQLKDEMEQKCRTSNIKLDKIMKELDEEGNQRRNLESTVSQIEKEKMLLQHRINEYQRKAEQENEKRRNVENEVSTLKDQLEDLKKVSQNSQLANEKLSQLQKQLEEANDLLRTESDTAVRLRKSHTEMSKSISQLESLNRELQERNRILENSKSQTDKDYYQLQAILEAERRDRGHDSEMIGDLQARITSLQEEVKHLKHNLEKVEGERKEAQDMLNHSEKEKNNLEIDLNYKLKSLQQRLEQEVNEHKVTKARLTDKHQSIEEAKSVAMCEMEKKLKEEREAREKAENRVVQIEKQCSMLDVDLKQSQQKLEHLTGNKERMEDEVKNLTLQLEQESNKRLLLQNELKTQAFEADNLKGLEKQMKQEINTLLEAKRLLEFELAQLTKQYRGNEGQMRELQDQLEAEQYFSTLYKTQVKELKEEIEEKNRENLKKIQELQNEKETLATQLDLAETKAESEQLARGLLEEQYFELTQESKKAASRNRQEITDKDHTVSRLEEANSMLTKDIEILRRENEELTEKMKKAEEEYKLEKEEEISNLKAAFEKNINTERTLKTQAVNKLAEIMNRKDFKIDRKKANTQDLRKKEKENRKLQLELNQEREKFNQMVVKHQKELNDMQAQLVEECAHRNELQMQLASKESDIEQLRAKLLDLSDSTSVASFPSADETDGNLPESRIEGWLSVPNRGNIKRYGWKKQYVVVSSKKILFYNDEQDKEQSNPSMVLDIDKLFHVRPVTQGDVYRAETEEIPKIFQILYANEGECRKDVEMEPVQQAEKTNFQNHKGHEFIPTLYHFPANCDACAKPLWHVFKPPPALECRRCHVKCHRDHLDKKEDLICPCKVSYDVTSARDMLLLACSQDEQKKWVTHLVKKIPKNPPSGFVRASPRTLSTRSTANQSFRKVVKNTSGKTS
UniProt Q8N4C8, sequence (whole entry, looked up): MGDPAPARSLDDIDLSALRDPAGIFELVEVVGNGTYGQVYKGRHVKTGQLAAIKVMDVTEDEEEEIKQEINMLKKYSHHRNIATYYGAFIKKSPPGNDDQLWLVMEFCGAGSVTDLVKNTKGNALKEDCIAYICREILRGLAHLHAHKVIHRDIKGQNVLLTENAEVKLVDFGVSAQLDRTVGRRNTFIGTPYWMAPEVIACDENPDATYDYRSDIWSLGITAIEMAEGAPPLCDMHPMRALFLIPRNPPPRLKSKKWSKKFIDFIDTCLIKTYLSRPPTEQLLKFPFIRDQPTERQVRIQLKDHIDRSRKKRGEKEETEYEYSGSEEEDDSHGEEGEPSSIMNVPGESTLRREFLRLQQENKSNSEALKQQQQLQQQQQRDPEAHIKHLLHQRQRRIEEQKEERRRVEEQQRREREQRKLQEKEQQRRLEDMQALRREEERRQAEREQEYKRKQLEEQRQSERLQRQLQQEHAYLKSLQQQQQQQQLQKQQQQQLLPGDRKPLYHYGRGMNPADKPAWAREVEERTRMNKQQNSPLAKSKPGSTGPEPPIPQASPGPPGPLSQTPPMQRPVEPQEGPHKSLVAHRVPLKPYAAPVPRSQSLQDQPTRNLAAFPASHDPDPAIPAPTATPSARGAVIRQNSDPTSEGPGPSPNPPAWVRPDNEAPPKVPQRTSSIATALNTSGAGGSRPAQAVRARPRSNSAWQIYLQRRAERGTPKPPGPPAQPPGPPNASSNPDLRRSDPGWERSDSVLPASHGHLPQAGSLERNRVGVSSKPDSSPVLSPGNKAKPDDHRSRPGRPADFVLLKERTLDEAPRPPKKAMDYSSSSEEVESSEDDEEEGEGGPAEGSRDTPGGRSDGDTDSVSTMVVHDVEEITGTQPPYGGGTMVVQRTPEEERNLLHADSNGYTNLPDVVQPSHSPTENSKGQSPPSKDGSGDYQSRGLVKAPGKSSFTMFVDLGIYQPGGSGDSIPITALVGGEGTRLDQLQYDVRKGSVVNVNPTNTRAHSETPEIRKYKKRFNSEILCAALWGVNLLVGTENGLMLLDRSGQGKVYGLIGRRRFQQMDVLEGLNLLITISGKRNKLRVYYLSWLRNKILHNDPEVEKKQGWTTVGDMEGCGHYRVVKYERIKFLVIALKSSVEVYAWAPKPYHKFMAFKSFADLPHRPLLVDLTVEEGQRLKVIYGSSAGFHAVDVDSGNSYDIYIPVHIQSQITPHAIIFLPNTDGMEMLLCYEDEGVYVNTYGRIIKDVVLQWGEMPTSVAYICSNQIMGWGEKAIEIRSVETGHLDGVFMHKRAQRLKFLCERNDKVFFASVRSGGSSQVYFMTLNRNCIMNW
UniProt P32298, sequence (whole entry, looked up): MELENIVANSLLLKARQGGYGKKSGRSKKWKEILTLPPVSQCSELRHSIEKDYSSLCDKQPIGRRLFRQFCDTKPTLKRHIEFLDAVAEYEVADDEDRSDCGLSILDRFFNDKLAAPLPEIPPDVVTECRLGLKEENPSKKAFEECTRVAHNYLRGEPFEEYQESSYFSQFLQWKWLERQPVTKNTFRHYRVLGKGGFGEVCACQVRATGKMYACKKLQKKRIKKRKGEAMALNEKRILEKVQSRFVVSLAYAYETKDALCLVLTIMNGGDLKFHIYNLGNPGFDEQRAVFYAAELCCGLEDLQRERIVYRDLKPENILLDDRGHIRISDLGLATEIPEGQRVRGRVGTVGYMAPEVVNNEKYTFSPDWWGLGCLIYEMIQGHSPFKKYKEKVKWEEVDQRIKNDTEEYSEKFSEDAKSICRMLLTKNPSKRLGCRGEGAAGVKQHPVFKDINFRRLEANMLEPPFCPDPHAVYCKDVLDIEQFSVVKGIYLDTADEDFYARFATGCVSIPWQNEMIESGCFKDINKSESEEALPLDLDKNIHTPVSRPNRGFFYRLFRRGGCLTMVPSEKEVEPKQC

Study 1 — observed: enzyme activity; action: inhibitor; tested at: 10 µM; quantity: inhibition
Target: Calcium/calmodulin-dependent protein kinase type II subunit alpha (CAMK2A, Homo sapiens, UniProt Q9UQM7)
UniProt Q9UQM7, sequence (whole entry, looked up): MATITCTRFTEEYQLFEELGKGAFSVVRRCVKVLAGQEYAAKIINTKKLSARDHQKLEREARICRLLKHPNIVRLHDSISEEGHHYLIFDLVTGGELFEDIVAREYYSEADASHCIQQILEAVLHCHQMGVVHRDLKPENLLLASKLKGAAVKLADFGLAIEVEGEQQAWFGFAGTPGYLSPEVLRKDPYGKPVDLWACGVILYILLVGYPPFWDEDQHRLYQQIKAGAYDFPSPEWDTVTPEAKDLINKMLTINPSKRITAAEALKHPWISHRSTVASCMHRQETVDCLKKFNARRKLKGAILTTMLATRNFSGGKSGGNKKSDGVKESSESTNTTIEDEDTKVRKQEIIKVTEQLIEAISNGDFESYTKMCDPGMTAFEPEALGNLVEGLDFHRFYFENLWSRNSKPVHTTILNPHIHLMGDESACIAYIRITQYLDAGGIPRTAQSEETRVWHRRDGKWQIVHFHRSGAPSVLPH
CC(C)=CCc1c(O)cc(O)c2c1O[C@H](c1ccccc1)CC2=O: 29%
Oc1ccc2c(c1)CC[C@H](c1ccccc1)[C@@H]2c1ccc(OCCN2CCCC2)cc1: 6%
CC(C)=CCC1=CC(=O)c2ccccc2C1=O: 4%
C[C@@H](CC[C@@]1(O)O[C@H]2C[C@H]3[C@@H]4CC[C@@H]5C[C@@H](O[C@@H]6O[C@H](CO)[C@H](O)[C@H](O)[C@H]6O[C@@H]6O[C@H](CO)[C@@H](O)[C@H](O)[C@H]6O)CC[C@]5(C)[C@H]4CC[C@]3(C)[C@H]2[C@@H]1C)CO[C@@H]1O[C@H](CO)[C@@H](O)[C@H](O)[C@H]1O: -5%
COc1cc2c(cc1OC)-c1cc3ccc4c(c3c[n+]1CC2)OCO4: -10%
CC(C)=CCC[C@](C)(O[C@@H]1O[C@H](CO[C@@H]2OC[C@@H](O)[C@H](O)[C@H]2O)[C@@H](O)[C@H](O)[C@H]1O)[C@H]1CC[C@]2(C)[C@@H]1[C@H](O)C[C@@H]1[C@@]3(C)CC[C@H](O[C@@H]4O[C@H](CO)[C@@H](O)[C@H](O)[C@H]4O[C@@H]4O[C@H](CO)[C@@H](O)[C@H](O)[C@H]4O[C@@H]4OC[C@@H](O)[C@H](O)[C@H]4O)C(C)(C)[C@@H]3CC[C@]12C: -13%
CC(=O)OCC1=C(C(=O)O)N2C(=O)[C@@H](NC(=O)CSc3ccncc3)[C@H]2SC1: -4%

Study 2 — observed: enzyme activity; action: inhibitor; tested at: 0.5 µM; reference: control; quantity: remaining activity
Compound: CN([C@@H](Cc1ccc(OS(=O)(=O)c2cccc3cnccc23)cc1)C(=O)N1CCN(c2ccccc2)CC1)S(=O)(=O)c1cccc2cnccc12
AKT2 (Homo sapiens, UniProt P31751): 106%
MINK1 (Homo sapiens, UniProt Q8N4C8): 98.2%
MAPK14 (Homo sapiens, UniProt Q16539): 91%
MARK4 (Homo sapiens, UniProt Q96L34): 98.8%
PAK3 (Homo sapiens, UniProt O75914): 102%
MARK2 (Homo sapiens, UniProt Q7KZI7): 103%
GRK4 (Homo sapiens, UniProt P32298): 96.5%
ROCK1 (Homo sapiens, UniProt Q13464): 97.9%
TXK (Homo sapiens, UniProt P42681): 94.3%
CLK4 (Homo sapiens, UniProt Q9HAZ1): 97.2%
KDR (Homo sapiens, UniProt P35968): 100%
DDR2 (Homo sapiens, UniProt Q16832): 96.9%
PNCK (Homo sapiens, UniProt Q6P2M8): 99.7%

Study 3 — observed: binding; technique: radioligand binding; tested at: 10 µM; quantity: inhibition
Target: Alpha-1B adrenergic receptor (ADRA1B, Homo sapiens, UniProt P35368)
UniProt P35368, sequence (whole entry, looked up): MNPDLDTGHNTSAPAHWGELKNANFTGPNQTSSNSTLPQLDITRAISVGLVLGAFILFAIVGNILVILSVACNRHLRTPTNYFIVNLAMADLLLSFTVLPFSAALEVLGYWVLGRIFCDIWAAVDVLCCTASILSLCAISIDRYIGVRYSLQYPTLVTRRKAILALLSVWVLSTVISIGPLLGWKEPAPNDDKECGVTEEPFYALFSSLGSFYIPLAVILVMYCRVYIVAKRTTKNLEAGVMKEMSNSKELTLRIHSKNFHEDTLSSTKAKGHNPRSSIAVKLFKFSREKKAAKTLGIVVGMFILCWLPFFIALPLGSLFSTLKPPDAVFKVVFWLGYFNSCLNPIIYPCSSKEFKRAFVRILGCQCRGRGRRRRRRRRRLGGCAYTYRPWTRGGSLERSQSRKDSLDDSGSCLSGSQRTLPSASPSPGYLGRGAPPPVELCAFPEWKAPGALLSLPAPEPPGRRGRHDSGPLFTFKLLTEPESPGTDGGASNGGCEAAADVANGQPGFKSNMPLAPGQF
O[C@]1(C(F)(F)F)CCCC[C@H]1Nc1ccc(F)cc1: 8.7%
Cc1nc(Cc2cccc(C(F)(F)F)c2)sc1-c1ccc(C(N)=O)nc1: 24.6%
CCOCCn1cc(C(=O)Nc2ccc(-n3nc(-c4cccnc4)cc3C(F)(F)F)cn2)ccc1=O: -16.4%
CNC(=O)Nc1ccc2c(c1)[C@]1(CC2)OC(=O)N(CC(=O)N(Cc2ccc(F)cc2)[C@@H](C)C(F)(F)F)C1=O: -1.33%
O=C(O)c1cc(-c2ccc(C3CCNCC3)cc2)c2ccc(-c3ccc(C(F)(F)F)cc3)cc2c1: 85.8%
O=C(Nc1cccnn1)N1CCC(=Cc2cccc(Oc3ccc(C(F)(F)F)cn3)c2)CC1: 0.4%
C[C@H](NC(=O)c1cnc2n1[C@](C)(Cc1ccc(C#N)cc1)C(=O)N2c1cc(Cl)c(F)c(Cl)c1)C(=O)NC1(c2ccccn2)CC1: 2.35%
C[C@@]1(Cc2ccc(C#N)cc2)C(=O)N(c2cc(Cl)cc(Cl)c2)c2ncc(C(=O)NC3(c4nc(C5CCC5)no4)CC3)n21: 23.8%
Nc1c(C(=O)NCc2ccc(C(=O)NCCCC3CCCCC3)cc2)cnn1-c1ccccc1: 8.69%
Cc1c(NC(=O)c2cc(C(N)=O)nc3cc(F)ccc23)c(C(F)(F)F)nn1Cc1ccc(C(C)(C)C)cc1: -5.98%
COc1cc(-c2cn(C3CCc4ccccc4N(CC(F)(F)F)C3=O)nn2)ccc1-n1ccc(C)n1 (centres unmarked): -31.6%
Cc1cc(C)c(-n2ccn3nc(-c4cccnc4)cc23)cc1NC(=O)c1cc(C#N)cc(S(F)(F)(F)(F)F)c1: -0.87%
COc1cccc(CNC(=O)c2nc3scc(COCc4ccc(C(=O)O)cc4)c3c(=O)[nH]2)c1: 7.58%

Mixed results — technique: biochemical; tested at: 1 µM
Target: Serine/threonine-protein kinase mTOR (MTOR, Homo sapiens, UniProt P42345)
Cc1ccc(NC(=O)c2ccnc(C(F)(F)F)c2)cc1-c1cc(OCCO)nc(N2CCOCC2)c1
remaining activity: 99%

COc1ccc2[nH]c3c4[nH]c5ccc(OC)cc5c4c4c(c3c2c1)C(=O)NC4=O
remaining activity: 100%

For quick reference, copied from above (study 3):
O=C(O)c1cc(-c2ccc(C3CCNCC3)cc2)c2ccc(-c3ccc(C(F)(F)F)cc3)cc2c1: 85.8%
Cc1cc(C)c(-n2ccn3nc(-c4cccnc4)cc23)cc1NC(=O)c1cc(C#N)cc(S(F)(F)(F)(F)F)c1: -0.87%
CCOCCn1cc(C(=O)Nc2ccc(-n3nc(-c4cccnc4)cc3C(F)(F)F)cn2)ccc1=O: -16.4%
COc1cccc(CNC(=O)c2nc3scc(COCc4ccc(C(=O)O)cc4)c3c(=O)[nH]2)c1: 7.58%
C[C@@]1(Cc2ccc(C#N)cc2)C(=O)N(c2cc(Cl)cc(Cl)c2)c2ncc(C(=O)NC3(c4nc(C5CCC5)no4)CC3)n21: 23.8%
Cc1nc(Cc2cccc(C(F)(F)F)c2)sc1-c1ccc(C(N)=O)nc1: 24.6%
